Published values gathered from unrelated publications.
Each line is one published result; not all experiments were run side by side. Numbers after ± are the reported error.

SMILES = Cc1nc(N(C)c2ccc3c(c2)/C(=C/c2ccccc2C)C(=O)N3C)c2ccccc2n1; cell line = BEAS-2B; test = cell growth or viability, MTT; IC50 = 11.4 µM
SMILES = O=[P@]1(c2ccccc2)CC[C@@H](O)CC1; cell line = SW-620; test = cell growth or viability, MTT; setting = 72 h; IC50 = > 100 µM
SMILES = COC(=O)N1c2ccc3c(nc(Cc4ccccc4)n3[C@@H]3CCC[C@@H](C(=O)O)C3)c2CC[C@@H]1C; cell line = HCC1937; test = cell growth or viability, ATP luminescence; setting = 10 days; IC50 = 9.41 µM
SMILES = CNS(=O)(=O)Nc1nccc(Cc2c(C)c3ccc(Oc4ncccc4F)cc3oc2=O)c1F; cell line = RT-4; test = cell viability; setting = 7 days; IC50 = 0.37 µM
SMILES = CCOC(=O)c1cc(C)n(CO)n1; cell line = BEAS-2B; test = cell growth or viability, MTT; setting = 24 h; IC50 = > 800 µM
SMILES = CCn1nc(Cl)c2c1-c1cnc(N)c(c1)O[C@H](C)c1cc(F)ccc1-c1nn(C)cc1C2; cell line = Ba/F3 CD74-ROS1 G2032R; test = cell viability; IC50 = 0.0011 µM
SMILES = NC(=O)c1ccc(-c2ccccc2Cl)c2c3c([nH]c12)CC[C@H](N)C3; cell line = A549/DDP, cisplatin-resistant; test = cell growth, CellTiter-Glo; setting = 96 h; IC50 = 0.045 µM
SMILES = O=C(NCc1cc(F)cc(F)c1)[C@@]1(O)CCN(c2ccc3[nH]ccc3c2)C1=O; cell line = SW872 liposarcoma; test = cell proliferation, BrdU incorporation; IC50 = 25 µM
SMILES = Cc1ccccc1Nc1c(C2CN(C(=O)OC(C)(C)C)C2)nc2c(Br)c(F)ccn12; cell line = UMRC2; IC50 = 2.8 µM
SMILES = Cc1nc(N(C)c2ccc3c(c2)/C(=C/c2cn(C)c4ccccc24)C(=O)N3C)c2ccccc2n1; cell line = BEAS-2B; test = cell growth or viability, MTT; IC50 = 9.12 µM
SMILES = CCc1ccc(/N=C2\C(=O)N(Cc3ccc([N+](=O)[O-])cc3)c3ccccc32)cc1; cell line = B16; test = cell growth or viability, MTT; setting = 48 h; IC50 = 3.25 µM
SMILES = CCCON(Cc1ccc(C(=O)NO)cc1)C(=O)Nc1cc(C)cc(C)c1; cell line = HAL-01 B-ALL; test = cell viability, CellTiter-Glo; setting = 72 h; IC50 = 2.52 ± 0.122 µM
SMILES = CN1CCC(N[C@H]2CCc3[nH]c4c(C(N)=O)ccc(-c5ccccc5Cl)c4c3C2)CC1; cell line = MX1; test = cell growth or viability; IC50 = 1.2 µM
SMILES = CC(C)c1ccc(N(C)c2ccc3c(c2)OCC[C@H]3CNc2cnccc2C(=O)O)cc1; cell line = NOMO-1; test = cell growth or viability, ATP luminescence; setting = 7 days; IC50 = 0.00501 µM
SMILES = Cc1ccc([N+](=O)[O-])cc1S(=O)(=O)N(C)/N=C/c1cnc2ccc(Br)cn12; cell line = OVCAR-4; test = cell viability, MTS; IC50 = 0.403 µM
SMILES = [BH3-][P@+]1(c2ccccc2)CC[C@@H](O)CC1; cell line = SW-620; test = cell growth or viability, MTT; setting = 72 h; IC50 = > 100 µM
SMILES = O=C1CCC(N2C(=O)c3ccc(N4CCC(C(=O)N5CCC(CCN6CCC(CNC(=O)c7cccc(-c8noc(C(F)(F)F)n8)c7)(c7nc(-c8ccccc8)cs7)CC6)CC5)CC4)cc3C2=O)C(=O)N1 (stereo not shown); cell line = SU-DHL-4; test = cell growth or viability, CCK-8; setting = 7 days; IC50 = 0.65 µM
SMILES = CO[C@@H]1[C@@H](OC(=O)c2ccc(C)[nH]2)[C@@H](O)[C@H](Oc2ccc3c(O)c(NC(=O)c4c[nH]c(C(=O)Nc5c(O)c6ccc(O[C@@H]7OC(C)(C)[C@H](OC)[C@@H](OC(=O)c8ccc(C)[nH]8)[C@H]7O)c(C)c6oc5=O)c4C)c(=O)oc3c2C)OC1(C)C; cell line = PSN1; test = cell growth or viability, ATP luminescence; setting = 72 h; IC50 = ~1.7 µM
SMILES = CC(=O)Oc1ccccc1C(=O)[O][Pt]([NH2])([NH2])([Cl])([Cl])[O]C(C)=O; cell line = PSN1; test = cell growth or viability, MTT; setting = 72 h; IC50 = 0.25 µM
SMILES = CN(C)c1ccc(/C=C/c2cc(/C=C3\Sc4ccccc4N3CCCN3CCCC3)c3ccccc3[n+]2C)cc1; cell line = U-87 MG; test = cell growth or viability, MTT; setting = 36 h; IC50 = 5.2 µM
SMILES = O=C1Nc2ccccc2C12NC(c1ccc(Cl)c(Cl)c1)C1(C(=O)Nc3ccccc31)N2Cc1ccc(Cl)c(Cl)c1 (stereo not shown); cell line = B16; test = cell growth or viability, MTT; setting = 48 h; IC50 = 28.9 µM
SMILES = CCOc1cncc(-c2ccc(NC(=O)C3(c4ccnc(NS(=O)(=O)C5CC5)n4)CCOCC3)nc2)n1; cell line = renal cancer; test = cell viability, CellTiter-Glo; test system = DMSO 0.1%; setting = 72 h, line code 1781; IC50 = 0.616 µM
SMILES = COc1ccc(OC)c2c1CN(c1cn[nH]c(=O)c1Cl)CC2O (stereo not shown); cell line = CHO; test = cytotoxicity, MTT; IC50 = > 50 µM
SMILES = Cc1cnc(Nc2ccc3c(c2)CCN(C(=O)/C=C/C(=O)c2ccc(Cl)cc2)C3)nc1-c1cnn(C(C)C)c1; cell line = MDA-MB-157; test = cell growth or viability, MTT; setting = 48 h; IC50 = 0.62 µM
SMILES = O=C1/C(=N\c2ccc(Cl)cc2)c2ccccc2N1Cc1ccccc1; cell line = B16; test = cell growth or viability, MTT; setting = 48 h; IC50 = 1.99 µM
SMILES = COc1ccccc1/C=C1\C(=O)N(C)c2ccc(Nc3nc(C)nc4ccccc34)cc21; cell line = BEAS-2B; test = cell growth or viability, MTT; IC50 = 10.7 µM
SMILES = CSCC[C@H](NC(=O)[C@H](CO)NC(C)=O)C(=O)N[C@@H](CCCNC(=N)N)C(=O)N[C@@H](Cc1c[nH]c2ccccc12)C(=O)N[C@@H](CO)C(=O)N[C@@H](CCCNC(=N)N)C(=O)N[C@@H](CCCCN)C(=O)N[C@@H](CCSC)C(=O)N1CCC[C@H]1C(=O)N[C@@H](CS)C(=O)N[C@H](C(=O)N[C@@H](CO)C(=O)O)C(C)C; cell line = SUP-T1; test = Erk phosphorylation, inhibitor, phospho flow cytometry; setting = added: CXCL12 100 ng/mL; IC50 = > 100 µM
SMILES = C=CC(=O)N1CC2C(=O)N(CCN(C)C)c3c(c4cc(Cl)c(-c5c(O)cccc5F)nc4n(-c4c(C)ccnc4C(C)C)c3=O)N2CC1C (stereo not shown); cell line = NCI-H2030; test = cell growth or viability; IC50 = 3.11 µM
SMILES = Cn1ncc(-c2ccc3c(=O)[nH]nc(CN)c3c2)c1-c1c(F)c(Cl)cc(OC2CC2)c1C#N; cell line = RT-4; test = cell viability, inhibitor, CellTiter-Glo; setting = 120 h, baseline-subtracted; IC50 = 3.18 µM
SMILES = CCc1c(-c2ccc3[nH]ncc3c2)cnc(N)c1-c1ccc(O)cc1; cell line = CHP-212 parental; test = cell viability, SRB; setting = mean of 3 runs; IC50 = 13.8 µM
SMILES = O=CCNCCOn1c(=O)n(OCCNCCO)c(=O)n(OCCNCCOn2c(=O)n(OCCNCCO)c(=O)n(OCCNCCO)c2=O)c1=O; cell line = A549; test = cell growth or viability, MTT; setting = 24 h; IC50 = 10.5 mg/L
SMILES = Cc1ccc(CN2C3(NC(c4ccc(C)cc4)C24C(=O)Nc2ccccc24)C(=O)Nc2ccccc23)cc1 (stereo not shown); cell line = B16; test = cell growth or viability, MTT; setting = 48 h; IC50 = 49 µM
SMILES = Cc1nc(Nc2ccc3c(c2)/C(=C/c2ccccc2)C(=O)N3)c2ccccc2n1; cell line = B16; test = cell growth or viability, MTT; IC50 = 4.23 µM
SMILES = C=CC(=O)N1CCCC(n2c(=O)c3ncccc3n(Cc3ccc(Oc4ccccc4)cc3)c2=O)C1 (stereo not shown); cell line = Z-138; test = cell growth or viability, MTT; setting = 72 h; IC50 = 20 µM
